Experimental data from different studies.
Each numbered part is a random draw from the data of one study; scales do not carry over between parts. Changes are numbered by the printed parent chain.

Block 1 — method: EMSA with sequencing; molecule type: double-stranded DNA, one strand shown; sample: in vitro; tested at: 10 and 20 nM; relative to: negative control set to 0; direction: higher = stronger binding; endpoint: normalised bound fraction
Target: Hepatocyte nuclear factor 3-alpha (Foxa1, Mus musculus, UniProt P35582, residues 1-468, full length assumed)
Notes: whole designed probe, mean of two concentrations, ends assumed
All sequences stand within: GTGAGCGGTGCCCATTGATGGGGAAC … TTTCACTGGGATCGTGGGGAC
Construct (chain): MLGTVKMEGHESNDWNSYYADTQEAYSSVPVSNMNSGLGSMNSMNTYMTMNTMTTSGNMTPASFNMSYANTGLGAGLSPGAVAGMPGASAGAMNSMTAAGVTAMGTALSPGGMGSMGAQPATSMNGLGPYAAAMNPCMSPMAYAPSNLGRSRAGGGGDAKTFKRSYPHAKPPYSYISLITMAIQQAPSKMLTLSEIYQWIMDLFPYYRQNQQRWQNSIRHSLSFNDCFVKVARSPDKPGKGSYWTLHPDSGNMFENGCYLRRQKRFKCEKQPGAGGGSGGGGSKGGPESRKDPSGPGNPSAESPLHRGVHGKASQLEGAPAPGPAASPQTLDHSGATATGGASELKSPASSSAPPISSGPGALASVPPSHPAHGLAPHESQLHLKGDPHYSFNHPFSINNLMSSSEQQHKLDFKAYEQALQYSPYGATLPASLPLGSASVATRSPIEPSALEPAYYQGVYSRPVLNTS
GCCTTGTTCAATTCTAGAATTTAATCTAGGATGACCCATTGTTTCTATTTGTCACATCTGTTTAGACTTCTCTGGTCTATGACAATTTCTCAGTGTTTGCTTATTTTTCATGACTTCATAGTTTTGAGGAGTACTCATCAGGTATTTTGTGAAATGTCCCTCAATTTGTATTTGTCTTATGTTTTCTCATAAT: 0.282 ratio
GCCAAGCTGTGCTCATGATCACATGGGAGGGAGGTGACAATGGAAAGCAGATAAATGAACTATTGCAGCCAATTGATGAGCACAGAGAGAGGCAGATTACTGAATGTAGGCAGATAGGACCTTACACAATATCCCAGAGATCAACTTACCCCAGCACGGCTTGGACTTAGCAGAGAGGACCAATGGACCTGAA: -0.0681 ratio
TTTCCAGCCCTTAGTTTCTGGCATTTAACCTGACTCTGGTCCCTGAATGGCATGGGAGTGCTTTCAACCACAGGTTTCCACATTCATGCCACTAGATTGCTTTTCTGACTCATTCTGATCTACAGAGATCTTAAATTGCTTTGTGTTTCCAATGGAGAAAGAGCTTGGGAAGGGAGGATCCTAATTGTCTAAA: -0.0887 ratio
ATAATGTCTTAGATTAAAGACGTTGCCTTTAATATCTGTTGGGAAGGAAATGTCCAGACTTTTCAAATCTCTTATTATATGTTTCCTTTTTTTGTTTACATAGGGAACAATGTTTATAGTCGTGTGTACAGTGGGGGTCTACAACAAGAAGTGTATATTTTCAAACAATTTTTTAATGATTTAACAATTTTTG: 0.544 ratio
AATTTTAGGCTTTTCTACTCTCAACTTCTCTCTGAACTCAAAATTGCAGTGCACCCTCATGAATCTGAGAACAATAAGATTGGCCTAACAAAGTAATCTGGAAGAAAGAATACAATTTGGATGCAGAATATCATTCAAGAAAAACATAGTAAAAGTTATAGATAAATGTAATTACTACTCATTTGCAAAACTG: -0.0636 ratio
ATCTTCCCCCTCTTCCTTGCCCCACCAGCTCACCTTCCCGGGTTATTTGCAGATAGGAAAATAAATAAAGCCGGCATTCGTTAACCCTCTTCTGGCGCAAACTGCTGTTTGCTCTGGATGAATCATGGTCCTTTGGCGACGCCAGGCTCCGGGAGAAAAAAAAACCGTGTCAGGGCCATGATCCGGGGTGGCC: 0.325 ratio
ATCTTCCCCCTCTTCCTTGCCCCACCAGCTCACCTACGGGGGTTATTTGCACAAAGGAAAATAAATAAAGCCGGCATTCGTTAACCCTCTTCACGCGCATACTGCTGTTTGCTCTGGATCTAACATGGTCCTTTGGCGAGGCGTGGCTCCGGGAGAGCAAAGCACCGTGTCAGGGCCATGATCCGGGGTGGCC: 0.383 ratio
GCCTGGAAGAAAGGGGCTGTTTTCCTTTTCACTATTATTATTTTAAACTTTGATGGGCTGCTGACGTCAGCAAATATGCTTGACGCCTGTAAAGCAATTTAGCCACATCACAAGCAGAAAGCCTGTGGGATTTTCTGGTGCCCTATTTCTAGAACCTTCCCTGTTCTGACCATTTGAAGGTGCTTATTTAGTC: 0.0367 ratio

Block 2 — method: competition protein-binding microarray; molecule type: double-stranded DNA, one strand shown; sample: in vitro; tested at: 2 µM; with: Cbf1 competitor, 0.05 µM; direction: higher = stronger binding; endpoint: fluorescence intensity; all sequences stand within: … GTCTTGATTCGCTTGACGCTGCTG
Target: Phosphate system positive regulatory protein PHO4, full length, GST-tagged (PHO4, Saccharomyces cerevisiae, UniProt P07270, residues 1-312)
Notes: whole 60-bp probe, lowest competitor level
Target sequence (chain): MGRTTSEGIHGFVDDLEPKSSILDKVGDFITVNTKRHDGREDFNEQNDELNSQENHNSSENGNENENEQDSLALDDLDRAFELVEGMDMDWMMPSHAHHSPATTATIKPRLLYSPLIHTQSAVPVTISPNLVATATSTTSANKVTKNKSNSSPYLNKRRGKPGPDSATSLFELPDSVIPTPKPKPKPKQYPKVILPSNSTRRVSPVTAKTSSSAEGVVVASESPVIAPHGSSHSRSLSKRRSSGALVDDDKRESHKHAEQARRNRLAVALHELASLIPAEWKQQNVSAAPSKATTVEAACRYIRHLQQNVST
CTAACGAAGGTTTTTCACGTGATATACAAGCCAAGT: 12100 a.u.
CCTTGTTTACCGTTCGCCGTGATGGCTCCTTGAGCA: 3960 a.u.
CGTCCTAGTGATTGGAACGTGGGTGCCATGAGGAAG: 14000 a.u.
TGATGTGAGTGCACTTAGTACTGATTTAGTGAGAGA: 4860 a.u.
TGCGCAACAACTTGTCTCGTGGGTGTATGTCTAGAA: 10100 a.u.
AGGTTAACCTTTAAATATAAATATAGTAATCTTCAT: 3080 a.u.
CGGGGTTAAGTTTGAAAGGTGGGTGGCTTGCAGCAG: 4870 a.u.
AGCTTGAGCCAAGACATCGTGACAAACAATAATAGG: 9030 a.u.
CTTCTCGAATCCTAAGGCGTGCAAAGATATGAGAAT: 8360 a.u.
AAGAAAAAATTCACAAGCGTGTCCTTTAGTGCAGCT: 5970 a.u.
GTCTTGTCTCATTGTCACGGTACTTTCCCCACTTCA: 4540 a.u.
CGTCCTAGTGATTGCTGGGTGGGTGCCATGAGGAAG: 6550 a.u.
CGTCCTAGTGATTTTCACGTGACCTCCATGAGGAAG: 11200 a.u.
CTAACGAAGGTTTGTCACCGAACTTACAAGCCAAGT: 2790 a.u.
CGGAAATGGCACCATCACCTGAAAAAGAAAGTAATC: 3690 a.u.
GCCCTCAAAAAACACAACGTGCGGATAACGACAACG: 13200 a.u.
CTAACGAAGGTTTTTCACGTGCATTACAAGCCAAGT: 15000 a.u.
CGTCCTAGTGATTGTCACCAAACTTCCATGAGGAAG: 4450 a.u.
TCAAAATTGGCATCGCACGTGAAGTTACATATATCC: 13700 a.u.
ATCCAGAACATTTTGCACGTGTTCCTTATACAGTCG: 16900 a.u.
CTTTCCCGATCTTGACCAGTGGGTGTAGCACATTTG: 4610 a.u.
CTGAACTAACACTCACACATGTAGAGGTCCCCGGGA: 6250 a.u.
TTGTCTCATTACGTTCAGGTGACTACATTATCGAGC: 3620 a.u.
CCGTATCTAGTATCGCACGCTCTTTTGCAAAAATAT: 7430 a.u.
TGAGGTAAGATTCTCTCCGTGCCAGCCTCTGGTGCT: 4430 a.u.

Block 3 — target: CCNE1, cyclin fold, Cln2 fusion (human); method: yeast growth competition, sequencing; sample: yeast; notes: weak parent motif; relative to: not given; direction: higher = stronger binding; endpoint: normalised enrichment score
Parent: PKN2 docking peptide (human); DSTVTKLDFDLEP
D1A: 0.294
K6A: 0.455
L7A: 0.0407
D10A: 0.108
P13A: 0.362
E12A: 0.165

Block 4 — method: DHFR PCA, deep sequencing; sample: yeast; with: (+)-ABA 0.0091 µM; relative to: wild-type fitted maximum; direction: higher = stronger binding; endpoint: relative binding score
Target: ABI1, truncated, D143A, DHFR fusion (Arabidopsis thaliana)
Notes: methotrexate growth selection, single substitutions
Parent: PYL1, truncated, DHFR fusion (Arabidopsis thaliana); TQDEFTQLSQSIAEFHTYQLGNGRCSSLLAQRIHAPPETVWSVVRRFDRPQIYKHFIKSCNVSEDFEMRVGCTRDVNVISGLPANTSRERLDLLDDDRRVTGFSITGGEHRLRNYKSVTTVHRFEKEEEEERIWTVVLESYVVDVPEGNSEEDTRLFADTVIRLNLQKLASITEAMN; partner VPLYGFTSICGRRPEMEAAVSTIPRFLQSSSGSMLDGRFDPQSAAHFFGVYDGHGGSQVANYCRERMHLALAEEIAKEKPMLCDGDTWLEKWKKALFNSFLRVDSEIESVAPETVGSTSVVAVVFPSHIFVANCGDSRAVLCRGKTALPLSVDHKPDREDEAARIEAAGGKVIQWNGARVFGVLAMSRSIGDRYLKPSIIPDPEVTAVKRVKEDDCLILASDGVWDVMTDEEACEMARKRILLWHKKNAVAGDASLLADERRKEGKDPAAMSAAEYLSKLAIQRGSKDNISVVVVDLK
R45S: 0.0184%
E147A: 19.1%
R69A: 19.1%
Y115M: 1.15%
Y115G: 5.24%
S117H: -9.75%
L164Y: 4.91%
S9H: 25%

Block 5 — method: RNA Bind-n-Seq; molecule type: RNA; sample: in vitro; tested at: 365 nM; relative to: no-protein control; direction: higher = stronger binding; endpoint: RBNS enrichment (R)
Target: RNA binding protein fox-1 homolog 2, RRM domain, GST-SBP tag (RBFOX2, Homo sapiens, UniProt O43251-10, residues 100-194)
Notes: natural RNA segment, single round, ends assumed
All sequences stand within: GGGAGUUCUACAGUCCGACGAUC … UGGAAUUCUCGGGUGCCAA
Construct (chain): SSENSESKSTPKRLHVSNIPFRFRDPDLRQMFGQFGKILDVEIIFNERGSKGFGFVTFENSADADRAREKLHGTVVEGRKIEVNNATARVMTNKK
CUCCCUGCCCGGGAAGAGGACAGAUAACUGAUUUCCGUUCUUUUGACUGUGUUUUAAAAUUCUCUUUCUAAACACAGAGUGUUGGGCCUGGUUUGUUUCUGACAAAGUUA: 0.256
CCUGUGACUGUGCAGCCUGACCCCGCAUAUGUUCCUGUGUGUUUGUGUGGUCUCCCCUUGUUUGGGGCUCAUACUGGGUAAGAGGCCCAGGAUAGCCAGCUUGCUUCUCU: 2.51
GAUCAGCUGUUCUUAGAUGCUGGUGGGCAUUUGAACAUGCUCCUCCAUGAUUCUGAAGCAUGCACACCUCUGAAGACCCCUGCAUGAAAAUAACCUCCAAGGACCCUCUG: 16.8
GUAGCAGCUUCAGCAUGGAAGAGGAGUCUGAUCAGGCCUCACUCCUCCCCCUGGAUGAGACCCUGCCUUUUUUCCCUACCCUCCUGUGAGACUGUCCUGUCCAGGAAAUC: 1.03
CUUGACGGGAGCAUUGGCCCCUGAGCCCAGAGAAGCUGGAAGCCUGCCGAAAACAGGAGCAAAUGGCGUUUUAUAAAUUAUUUUUUUGAAAUAAAGCUCUGUGUGCCUGG: 0.403
GUCAUCUGGUUUCAGUUCAGCAAGGGUACUUGAAUCAAUAUGGUAGCCCCAUCUGGACCAUCCACCCACAUCUGCUUGUCAAUCUGGCUGCAAACCUAAGCAGGCAGGUA: 0.387
GCAGUUAACCUUCAAGACAUUCCACUUGCUAAAAUUAUUUAUUUUGUAAGGAGAGGUUUUAAUUAAAACAAAAAAAAAUUCUUUUUUUUUUUUUUUUCCAAUUUUACCUU: 0.878
CAAAAGGCAUUAUAACUCUGACUCAAAUACAAGGUACAGAAGAUAAGCAUCUUUGAGGAAACUCCUACUUCAGUUCUUUUGUUAUGAUGAAGACAUUUGUGAGAGAGGAG: 0.863
UGAAGUUGUCAUGUCAUCCUUUUCUGUCUUCCACUCUCCUGGUCUAGAACCUUGUUGAUCAUGCUCAUAUUCUUCUUGAGGUUUGUUUUUGUUGUUGCGUAGUCUUUGUU: 4.77
ACAGAAACGUGGCAUCAUUUGGGAAGAACCAAGGUAGAAUUUAAUUUUCUGGACUUUAAAUCUCCUGGUUAAAUAAUGCUAAUCACUGUACCAUUUGAGUUACAUGUUUU: 0.546
GUAACCUUGGAAGCUGACCAAAACCUGUUUCUACUGAGAAGACAGAUACAUCCUUACCCCUAGAAGGGAAUUCCUCCACCAGGAAAGGGCUCACCACCCAUCUGCACAAG: 0.44
CCACCCACCCAGCGGUAUUGGAAGUGGCGACCAGGGGUGACCCGUCGUGGAGCCACUUCUCGCACUGCCACGGAGCAGCCGGAAACAAGGAGGCCUCGUGGGAUCCUUUA: 0.146

A few entries again (block 2):
CTTCTCGAATCCTAAGGCGTGCAAAGATATGAGAAT: 8360 a.u.
AAGAAAAAATTCACAAGCGTGTCCTTTAGTGCAGCT: 5970 a.u.
GTCTTGTCTCATTGTCACGGTACTTTCCCCACTTCA: 4540 a.u.
CGTCCTAGTGATTGCTGGGTGGGTGCCATGAGGAAG: 6550 a.u.
CGTCCTAGTGATTTTCACGTGACCTCCATGAGGAAG: 11200 a.u.
CTAACGAAGGTTTGTCACCGAACTTACAAGCCAAGT: 2790 a.u.
CGGAAATGGCACCATCACCTGAAAAAGAAAGTAATC: 3690 a.u.
